Results gathered from unrelated publications.
Protocols differ between the studies behind these lines. ± marks the error that the study gave.

| SMILES | assay | test system | conditions | tissue uptake [%ID/g] |
| --- | --- | --- | --- | --- |
| O=C(c1ccc(F)cc1)C1CCN(C2Cc3c(cccc3OCC[18F])CC2O)CC1 (single isomer, unassigned; (-)) | – | Sprague-Dawley rat, male, kidney | intravenous, dose not given, 60 min | 0.604 ± 0.092 |
| CCCC[C@H](NC(=O)CN1CCC(NC(=O)CN2CCC(NC(=O)CN3CCN(CC(=O)O)CCN(CC(=O)O)CCN(CC(=O)O)CC3)CC2)CC1)C(=O)N[C@H]1CC(=O)NCCCC[C@@H](C(N)=O)NC(=O)[C@H](Cc2c[nH]c3ccccc23)NC(=O)[C@H](CCCNC(=N)N)NC(=O)[C@@H](Cc2ccccc2)NC(=O)[C@H](Cc2c[nH]cn2)NC1=O [gallium-68 labelled] | – | C57BL/6J mice male B16-F10 tumour, spleen | 1 h post injection, unblocked | 0.2 |
| CCNc1cc2[o+]c3cc(NCC)c(C)cc3c(-c3ccccc3C(=O)OCCOCC[18F])c2cc1C | – | rat, lung | 30 min | 0.58 ± 0.14 |
| CN[C@](C)(C[18F])C(=O)O | – | SCID mouse A549 xenograft, brain | 30 min, post injection | 0.3 ± 0.03 |
| C=Cc1cc(O)cc2nc(-c3ccc(O)c([76Br])c3)oc12 | – | female C57BL/6 mouse, ovaries | 1 h, high dose | 0.19 ± 0.05 |
| N=C(N)NCc1ccc(C(=O)NCCCC[C@H](NC(=O)CCCCCCC(=O)NCCCC[C@H](NC(=O)N[C@@H](CCC(=O)O)C(=O)O)C(=O)O)C(=O)O)cc1[131I] | – | SCID mouse, PC-3 xenografts, heart | 1 h | 0.46 ± 0.18 |
| CC(C)C[C@@H](NC(=O)[C@@H](CCCNC(=N)N)NC(=O)[C@@H](Cc1c[nH]cn1)NC(=O)[C@@H](Cc1c[nH]c2ccccc12)NC(=O)[C@@H](Cc1c[nH]cn1)NC(=O)[C@@H](Cc1ccccc1)NC(=O)[C@H](NC(=O)[C@@H](Cc1ccc(O)cc1)NC(=O)CNC(=O)CNC(=O)CCOCCOCCOCCNC(=O)CN1CCN(CC(=O)O)CCN(CC(=O)O)CC1)[C@H](C)O)C(=O)N[C@H](CC(N)=O)C(=O)N1CCC[C@@H]1C(=O)O [gallium-68 labelled] | γ-counting | male C57BL/6 mice, spleen | intravenous, 1.85 MBq, 60 min | 1.99 ± 0.48 |
| COc1ccc(C)cc1NC(=O)OC1CC2CCCC(C1)N2Cc1ccc(CC[18F])cc1 (stereo not drawn) | – | BALB/c mice, EMT6 tumour, liver | 2 h | 17.1 ± 1.57 |
| N=C(N)NCc1ccc(C(=O)NCCCC[C@H](NC(=O)N[C@@H](CCC(=O)O)C(=O)O)C(=O)O)cc1[131I] | – | SCID mouse, PC-3 xenografts, stomach | 21 h | 0.17 ± 0.21 |
| C[S]1CC[S]2CC[P](CO)(CO)[99Tc+]12.[C-]#[O+].[C-]#[O+].[C-]#[O+] | – | CF-1 mice, female, blood | intravenous, 1 h | 0.22 |
| COc1cc2ccnc(Cc3ccc(O[11CH3])c(OC)c3)c2cc1OC | – | Sprague-Dawley rats, heart | intravenous, 0.08333 h | 0.325 ± 0.077 |
| N=C(N)NCc1ccc(C(=O)NCCCC[C@H](NC(=O)CCCCCCC(=O)NCCCC[C@H](NC(=O)N[C@@H](CCC(=O)O)C(=O)O)C(=O)O)C(=O)O)cc1[211At] | – | SCID mouse, PC-3 xenografts, liver | 1 h | 5.11 ± 4.13 |

Some of these lines once more:
| SMILES | assay | test system | conditions | tissue uptake [%ID/g] |
| --- | --- | --- | --- | --- |
| CCCC[C@H](NC(=O)CN1CCC(NC(=O)CN2CCC(NC(=O)CN3CCN(CC(=O)O)CCN(CC(=O)O)CCN(CC(=O)O)CC3)CC2)CC1)C(=O)N[C@H]1CC(=O)NCCCC[C@@H](C(N)=O)NC(=O)[C@H](Cc2c[nH]c3ccccc23)NC(=O)[C@H](CCCNC(=N)N)NC(=O)[C@@H](Cc2ccccc2)NC(=O)[C@H](Cc2c[nH]cn2)NC1=O [gallium-68 labelled] | – | C57BL/6J mice male B16-F10 tumour, spleen | 1 h post injection, unblocked | 0.2 |
| N=C(N)NCc1ccc(C(=O)NCCCC[C@H](NC(=O)CCCCCCC(=O)NCCCC[C@H](NC(=O)N[C@@H](CCC(=O)O)C(=O)O)C(=O)O)C(=O)O)cc1[211At] | – | SCID mouse, PC-3 xenografts, liver | 1 h | 5.11 ± 4.13 |
